{"data": "Assay results gathered from unrelated publications", "note": "± gives the spread as reported."}
{"Structure (SMILES)": "Cc1cc(OCc2nnc(SC3CCCC3)n2-c2cccnc2)ccc1-c1ccc(S(C)(=O)=O)cc1", "tested on": "BRD4-HiBiT cells", "test": "BRD4 degradation rescue, inhibitor", "conditions": "4 h, added: dBET6 500 nM", "quantity": "EC50", "value": "12.2 µM"}
{"Structure (SMILES)": "COc1ccc(C2CC3=C(C(=O)O2)C(c2ccccc2Cl)C(C(=O)OC(C)(C)C)=C(C)N3)cc1OC (mixture of isomers)", "tested on": "J774.A1", "test": "cytotoxicity", "quantity": "EC50", "value": "> 20 µM"}
{"Structure (SMILES)": "NS(=O)(=O)c1ccc(NN=C2C(=O)Nc3ccc(C(=O)O)cc32)cc1", "tested on": "CDK2 (Homo sapiens, UniProt P24941)", "test": "average of ITC, Octet and Thermofluor", "conditions": "untagged protein", "quantity": "Kd", "value": "0.232 µM"}
{"Structure (SMILES)": "CCCOC(=O)C1=C(C)NC2=C(C(=O)OC(c3ccc(OC)c(OC)c3)C2)C1c1ccccc1Cl (mixture of isomers)", "tested on": "J774.A1", "test": "cytotoxicity", "quantity": "EC50", "value": "> 20 µM"}
{"Structure (SMILES)": "CCn1cc(-c2cc(Cn3ccoc3=N)cc3c2CCN([C@@H](C)c2cc(OC)ccn2)C3=O)c(C(F)(F)F)n1", "tested on": "MINO", "test": "cell growth, inhibitor", "conditions": "120 h", "quantity": "EC50", "value": "0.316 µM"}
{"Structure (SMILES)": "CC(C)[C@H](NC(=O)[C@@H](NC(=O)CCCc1cn(CC(O)CN2CCN(CC(=O)O)CCN(CC(=O)O)CCN(CC(=O)O)CC2)nn1)[C@@H](C)O)C(=O)N[C@@H](CCCNC(=N)N)C(=O)N[C@H](C(=O)N[C@@H](CO)C(=O)N[C@@H](C)C(=O)N[C@@H](CC(=O)O)C(=O)O)[C@@H](C)O (stereo partly shown)", "test": "ICP-MS, item: gadolinium", "system": "healthy men, urine", "conditions": "intravenous, 0.04 mmol/kg", "quantity": "percent dose excreted", "value": "92.5 ± 29%"}
{"Structure (SMILES)": "O=C(Nc1cncc(-c2nc3ccccc3o2)c1)c1cc([N+](=O)[O-])c(N2CCNCC2)cc1Cl", "tested on": "J774.A1", "test": "cytotoxicity", "quantity": "EC50", "value": "0.75 µM"}
{"Structure (SMILES)": "CCOC(=O)C1=C(C)NC2=C(C(=O)OC(c3ccc(OC)c(OC)c3)C2)C1c1ccc(Cl)cc1C (stereo not shown)", "tested on": "J774.A1", "test": "cytotoxicity", "quantity": "EC50", "value": "> 20 µM"}
{"Structure (SMILES)": "Cc1nn(-c2nc3c(F)cc(F)cc3s2)c(O)c1C(c1cccc(C(F)(F)F)c1)c1c(C)nn(-c2nc3c(F)cc(F)cc3s2)c1O", "tested on": "THP1-Dual", "test": "IFNB1 luciferase reporter, inhibitor", "conditions": "added: HT-DNA", "quantity": "EC50", "value": "15.9 ± 1.5 µM"}
{"Structure (SMILES)": "COc1cnc2cccc(N3CCc4c(cc(Cn5ccnc5C)cc4-c4cn(C)nc4C(F)(F)F)C3=O)c2c1", "tested on": "HCC70", "test": "cell growth, inhibitor", "conditions": "120 h", "quantity": "EC50", "value": "> 30 µM"}
{"Structure (SMILES)": "CN(C)CCNS(=O)(=O)c1ccc(N/C=C2\\C(=O)Nc3ccccc32)cc1", "tested on": "Cyclin-dependent kinase 2, with cyclin A (CDK2, Homo sapiens, UniProt P24941)", "test": "bio-layer interferometry (Octet RED)", "conditions": "298 K, CDK2-cyclin A complex, averaged", "quantity": "Kd", "value": "0.84 µM"}
{"Structure (SMILES)": "NS(=O)(=O)OC[C@@H]1C[C@@H](n2ccc3c(N[C@H]4CCc5ccccc54)ncnc32)C[C@@H]1O", "tested on": "BRD4-HiBiT cells", "test": "BRD4 degradation rescue, inhibitor", "conditions": "4 h, added: dBET6 500 nM", "quantity": "EC50", "value": "0.108 µM"}
{"Structure (SMILES)": "CCn1cc(-c2cc(Cn3ccnc3)cc3c2CCN([C@H](c2cc(OC)ccn2)C2CC2)C3=O)c(C(F)(F)F)n1", "tested on": "HLC1", "test": "cell growth, inhibitor", "conditions": "120 h", "quantity": "EC50", "value": "0.154 µM"}
{"Structure (SMILES)": "Cc1cc(Cl)c(Cl)cc1NC(=O)c1cc([N+](=O)[O-])c(N2CCNCC2)cc1Cl", "tested on": "J774.A1", "test": "cytotoxicity", "quantity": "EC50", "value": "3.8 ± 1.9 µM"}
{"Structure (SMILES)": "CC(C)C[C@H](NC(=O)[C@H](Cc1ccccc1)NC(=O)c1cnccn1)B(O)O", "tested on": "BRD4-HiBiT cells", "test": "BRD4 degradation rescue, inhibitor", "conditions": "4 h, 50% degradation rescued, added: dBET6 500 nM", "quantity": "EC50", "value": "0.121 µM"}
{"Structure (SMILES)": "Cn1cc(-c2ccc(-c3cncc(Cl)c3N3CCC4(CCNC4=O)CC3)cc2)cn1", "tested on": "COLO 205", "test": "gene expression, microarray, item: CFL2 mRNA", "conditions": "concentration not given, 2 h", "scale": "relative to: untreated cells", "quantity": "log2 fold change", "value": -2.26}
{"Structure (SMILES)": "CCOC(=O)C1=C(C)NC2=C(C(=O)OC(c3ccccc3OC)C2)C1c1ccccc1Cl (stereo not shown)", "tested on": "J774.A1", "test": "cytotoxicity", "quantity": "EC50", "value": "> 20 µM"}
{"Structure (SMILES)": "Nc1cccc2c1CN(C1CCC(=O)NC1=O)C2=O (stereo not shown)", "tested on": "BRD4-HiBiT cells", "test": "BRD4 degradation rescue, inhibitor", "conditions": "2 h, added: dBET6 500 nM", "quantity": "EC50", "value": "2.47 µM"}
{"Structure (SMILES)": "CCOC(=O)C1=C(C)NC2=C(C(=O)OC(c3cccc(Cl)c3)C2)C1c1ccccc1Cl (stereo not shown)", "tested on": "J774.A1", "test": "cytotoxicity", "quantity": "EC50", "value": "> 20 µM"}
{"Structure (SMILES)": "Cc1ccc(-c2nc3ccccc3o2)cc1NC(=O)c1cc([N+](=O)[O-])c(F)cc1Cl", "tested on": "J774.A1", "test": "cytotoxicity", "quantity": "EC50", "value": "4.3 µM"}
{"Structure (SMILES)": "COC[C@H](NC(=O)c1cnc(C)s1)C(=O)N[C@@H](COC)C(=O)N[C@@H](Cc1ccccc1)C(=O)[C@@]1(C)CO1", "tested on": "BRD4-HiBiT cells", "test": "BRD4 degradation rescue, inhibitor", "conditions": "8 h, added: dBET6 500 nM", "quantity": "EC50", "value": "4.54 µM"}
{"Structure (SMILES)": "CCOC(=O)C1=C(C)NC2=C(C(=O)CC(c3ccc(Cl)c(OC)c3)C2)C1c1ccccc1Cl (mixture of isomers)", "tested on": "J774.A1", "test": "cytotoxicity", "quantity": "EC50", "value": "> 20 µM"}
{"note": "A few entries again:"}
{"Structure (SMILES)": "CCn1cc(-c2cc(Cn3ccnc3)cc3c2CCN([C@H](c2cc(OC)ccn2)C2CC2)C3=O)c(C(F)(F)F)n1", "tested on": "HLC1", "test": "cell growth, inhibitor", "conditions": "120 h", "quantity": "EC50", "value": "0.154 µM"}
{"Structure (SMILES)": "Cc1cc(Cl)c(Cl)cc1NC(=O)c1cc([N+](=O)[O-])c(N2CCNCC2)cc1Cl", "tested on": "J774.A1", "test": "cytotoxicity", "quantity": "EC50", "value": "3.8 ± 1.9 µM"}
{"Structure (SMILES)": "CC(C)C[C@H](NC(=O)[C@H](Cc1ccccc1)NC(=O)c1cnccn1)B(O)O", "tested on": "BRD4-HiBiT cells", "test": "BRD4 degradation rescue, inhibitor", "conditions": "4 h, 50% degradation rescued, added: dBET6 500 nM", "quantity": "EC50", "value": "0.121 µM"}
{"Structure (SMILES)": "Cn1cc(-c2ccc(-c3cncc(Cl)c3N3CCC4(CCNC4=O)CC3)cc2)cn1", "tested on": "COLO 205", "test": "gene expression, microarray, item: CFL2 mRNA", "conditions": "concentration not given, 2 h", "scale": "relative to: untreated cells", "quantity": "log2 fold change", "value": -2.26}
